Experimental data of several laboratories.
A part holds a random share of what one study measured. Positions count from the first letter of the parent shown.

Study 1 — technique: protein-binding microarray; form: double-stranded DNA, one strand shown; sample: in vitro; tested at: not given; direction: higher = stronger binding
Target: TATA-box-binding protein 1 (TBP1, Arabidopsis thaliana, UniProt P28147, residues 1-200, full length assumed)
Notes: k-mer, scored over probes, only values ≥0.25
Target sequence (chain): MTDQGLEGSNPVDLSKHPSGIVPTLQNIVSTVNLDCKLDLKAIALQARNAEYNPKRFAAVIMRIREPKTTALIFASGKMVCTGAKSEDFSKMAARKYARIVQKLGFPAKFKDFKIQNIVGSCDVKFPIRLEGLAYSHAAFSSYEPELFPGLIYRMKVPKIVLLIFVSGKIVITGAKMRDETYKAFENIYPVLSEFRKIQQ
| Sequence | E-score |
| --- | --- |
| AAAAAGA | 0.252 |
| TATAATA | 0.461 |
| ATAGATA | 0.276 |
| ATAAACA | 0.377 |
| CCAATTA | 0.253 |
| TGTTTAA | 0.309 |
| CGGTATA | 0.261 |
| ACTATTA | 0.312 |

Study 2 — technique: Spec-seq; form: double-stranded DNA, one strand shown; sample: in vitro; tested at: not given; notes: whole probe, mean of replicates; reference: not given; direction: lower = stronger binding; all sequences stand within: GAGTCGTCTCGTCAGCAC … CCGTAGAGCACTCAGGTC
Target: POU, POU domain (Salpingoeca helianthica)
Residues (chain): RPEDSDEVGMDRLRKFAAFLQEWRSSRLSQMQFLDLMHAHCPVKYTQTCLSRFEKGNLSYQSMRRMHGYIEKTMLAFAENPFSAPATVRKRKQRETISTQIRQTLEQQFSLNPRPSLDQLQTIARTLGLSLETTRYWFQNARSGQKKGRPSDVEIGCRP
| Sequence | relative binding energy [ln ratio] |
| --- | --- |
| ATTGAGAT | 1.36 |
| CCGGTAAT | 0.548 |
| ATGCCTAT | 1.25 |
| ATGCCGCT | 1.08 |
| ATGCGCAC | 1.55 |
| ATGCTTGC | 1.18 |
| ATGAGCAT | 1.15 |
| ATCTGCAT | 1.22 |

Mixed results
P1: viral docking peptide; KGVKRKLFAEDSS; partner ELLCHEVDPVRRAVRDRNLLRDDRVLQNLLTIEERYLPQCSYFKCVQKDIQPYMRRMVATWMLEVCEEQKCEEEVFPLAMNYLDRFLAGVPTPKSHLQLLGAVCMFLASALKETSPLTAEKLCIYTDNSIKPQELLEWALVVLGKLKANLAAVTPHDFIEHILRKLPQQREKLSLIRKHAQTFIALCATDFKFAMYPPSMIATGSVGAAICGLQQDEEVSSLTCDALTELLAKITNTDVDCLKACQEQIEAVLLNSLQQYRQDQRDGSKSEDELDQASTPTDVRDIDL
| Molecule | target | assay | system | conditions | scale | quantity | result |
| --- | --- | --- | --- | --- | --- | --- | --- |
| P1 K6E | CCND2, cyclin fold, Cln2 fusion (human) | yeast growth competition, sequencing | yeast | weak parent motif | reference: not given, higher = stronger binding | normalised enrichment score | 0.372 |
| PhoQ, residues 284 288 289 292 302 303 AQGLTV | PhoP, residues 12 14 15 18 19 NIMAP (Escherichia coli, UniProt P23836) | Sort-seq, refers to: YFP reporter | E. coli | PhoQ-PhoP variant library, added: 10 µM Mg2+ | reference: high Mg2+ state, higher = stronger signaling | fold induction | 2.08 |
